{"data": "Results from different studies", "note": "Every numbered part comes from another study and shows a few of its results, in no order.", "chain of UniProt Q9H1R3 (whole entry, looked up)": "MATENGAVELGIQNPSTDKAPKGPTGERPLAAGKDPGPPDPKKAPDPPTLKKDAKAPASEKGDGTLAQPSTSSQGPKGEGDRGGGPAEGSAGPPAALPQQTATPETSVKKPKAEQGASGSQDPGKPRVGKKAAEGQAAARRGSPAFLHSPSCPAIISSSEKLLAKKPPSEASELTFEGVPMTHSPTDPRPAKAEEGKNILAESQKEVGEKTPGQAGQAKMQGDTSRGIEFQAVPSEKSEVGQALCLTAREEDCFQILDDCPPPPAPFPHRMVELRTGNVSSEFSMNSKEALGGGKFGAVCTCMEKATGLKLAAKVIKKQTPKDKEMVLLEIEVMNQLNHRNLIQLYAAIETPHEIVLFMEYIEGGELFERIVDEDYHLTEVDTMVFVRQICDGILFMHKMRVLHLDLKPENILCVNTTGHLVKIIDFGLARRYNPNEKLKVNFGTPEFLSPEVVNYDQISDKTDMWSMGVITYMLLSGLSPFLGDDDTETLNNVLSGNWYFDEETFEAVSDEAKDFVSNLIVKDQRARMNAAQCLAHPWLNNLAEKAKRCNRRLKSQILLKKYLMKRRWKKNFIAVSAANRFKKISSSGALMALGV", "chain of UniProt Q13873 (whole entry, looked up)": "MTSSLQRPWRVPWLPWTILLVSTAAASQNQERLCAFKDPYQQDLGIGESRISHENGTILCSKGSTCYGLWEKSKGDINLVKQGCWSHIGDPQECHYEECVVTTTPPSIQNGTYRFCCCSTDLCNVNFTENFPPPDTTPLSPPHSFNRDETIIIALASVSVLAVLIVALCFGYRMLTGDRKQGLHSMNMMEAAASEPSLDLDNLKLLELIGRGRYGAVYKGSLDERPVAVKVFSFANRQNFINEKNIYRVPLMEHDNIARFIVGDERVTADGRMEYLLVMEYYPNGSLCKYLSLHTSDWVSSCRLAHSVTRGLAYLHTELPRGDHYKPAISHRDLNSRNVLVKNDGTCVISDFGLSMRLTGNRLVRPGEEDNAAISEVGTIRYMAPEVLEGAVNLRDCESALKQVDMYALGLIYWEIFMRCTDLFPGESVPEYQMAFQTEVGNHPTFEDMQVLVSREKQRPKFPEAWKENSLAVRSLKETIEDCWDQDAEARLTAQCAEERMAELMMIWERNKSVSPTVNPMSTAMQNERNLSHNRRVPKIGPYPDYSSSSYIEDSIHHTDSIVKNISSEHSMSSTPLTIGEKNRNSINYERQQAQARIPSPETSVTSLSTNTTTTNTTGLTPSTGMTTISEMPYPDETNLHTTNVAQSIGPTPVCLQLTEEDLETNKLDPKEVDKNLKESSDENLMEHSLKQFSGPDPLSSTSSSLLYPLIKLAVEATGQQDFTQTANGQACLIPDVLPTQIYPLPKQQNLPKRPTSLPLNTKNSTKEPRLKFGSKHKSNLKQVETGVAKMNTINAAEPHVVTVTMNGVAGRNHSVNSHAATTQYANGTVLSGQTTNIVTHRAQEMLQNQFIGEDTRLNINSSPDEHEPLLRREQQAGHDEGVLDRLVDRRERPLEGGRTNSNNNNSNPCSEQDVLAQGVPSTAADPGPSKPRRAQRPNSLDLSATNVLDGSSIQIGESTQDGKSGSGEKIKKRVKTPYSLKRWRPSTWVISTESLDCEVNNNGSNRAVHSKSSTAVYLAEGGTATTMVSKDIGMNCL", "chain of UniProt P19784 (whole entry, looked up)": "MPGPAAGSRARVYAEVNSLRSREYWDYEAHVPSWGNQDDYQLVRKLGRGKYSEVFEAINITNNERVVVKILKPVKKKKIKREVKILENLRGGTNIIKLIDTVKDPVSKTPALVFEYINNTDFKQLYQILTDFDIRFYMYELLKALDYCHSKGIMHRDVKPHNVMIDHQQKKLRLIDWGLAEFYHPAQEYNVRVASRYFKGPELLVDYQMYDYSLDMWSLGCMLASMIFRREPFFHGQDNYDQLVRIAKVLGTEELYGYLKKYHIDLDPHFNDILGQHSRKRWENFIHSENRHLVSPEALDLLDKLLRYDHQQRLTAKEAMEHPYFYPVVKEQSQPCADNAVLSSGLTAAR", "chain of UniProt P42336 (whole entry, unmodified, looked up)": "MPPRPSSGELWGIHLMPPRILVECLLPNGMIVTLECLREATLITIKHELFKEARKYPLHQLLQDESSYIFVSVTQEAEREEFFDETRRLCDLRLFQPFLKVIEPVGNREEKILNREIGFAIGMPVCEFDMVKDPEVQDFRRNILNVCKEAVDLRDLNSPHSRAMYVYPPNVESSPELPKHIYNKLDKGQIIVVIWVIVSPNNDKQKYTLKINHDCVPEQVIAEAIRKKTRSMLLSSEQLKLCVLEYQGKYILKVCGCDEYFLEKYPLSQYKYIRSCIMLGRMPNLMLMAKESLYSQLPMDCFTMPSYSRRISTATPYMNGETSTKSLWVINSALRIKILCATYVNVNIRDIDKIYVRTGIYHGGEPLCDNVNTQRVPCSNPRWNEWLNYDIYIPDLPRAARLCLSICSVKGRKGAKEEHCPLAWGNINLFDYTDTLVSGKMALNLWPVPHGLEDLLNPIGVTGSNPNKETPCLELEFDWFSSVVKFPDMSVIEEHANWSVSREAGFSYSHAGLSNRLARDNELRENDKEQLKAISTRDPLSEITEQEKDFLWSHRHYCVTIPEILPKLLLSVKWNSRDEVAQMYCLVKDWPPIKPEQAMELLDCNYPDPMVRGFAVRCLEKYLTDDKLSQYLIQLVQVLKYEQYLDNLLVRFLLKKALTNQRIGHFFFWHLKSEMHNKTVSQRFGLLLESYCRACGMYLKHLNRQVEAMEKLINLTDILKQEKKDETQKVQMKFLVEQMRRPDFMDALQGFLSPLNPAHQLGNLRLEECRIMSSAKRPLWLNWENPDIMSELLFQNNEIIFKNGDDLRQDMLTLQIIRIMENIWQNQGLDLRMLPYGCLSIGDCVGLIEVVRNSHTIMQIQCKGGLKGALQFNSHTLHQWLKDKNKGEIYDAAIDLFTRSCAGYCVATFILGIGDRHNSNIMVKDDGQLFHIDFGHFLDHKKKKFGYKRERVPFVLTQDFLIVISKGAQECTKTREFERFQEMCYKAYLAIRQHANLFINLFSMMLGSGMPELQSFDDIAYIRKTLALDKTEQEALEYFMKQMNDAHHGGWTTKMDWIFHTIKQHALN", "chain of UniProt Q15139 (whole entry, looked up)": "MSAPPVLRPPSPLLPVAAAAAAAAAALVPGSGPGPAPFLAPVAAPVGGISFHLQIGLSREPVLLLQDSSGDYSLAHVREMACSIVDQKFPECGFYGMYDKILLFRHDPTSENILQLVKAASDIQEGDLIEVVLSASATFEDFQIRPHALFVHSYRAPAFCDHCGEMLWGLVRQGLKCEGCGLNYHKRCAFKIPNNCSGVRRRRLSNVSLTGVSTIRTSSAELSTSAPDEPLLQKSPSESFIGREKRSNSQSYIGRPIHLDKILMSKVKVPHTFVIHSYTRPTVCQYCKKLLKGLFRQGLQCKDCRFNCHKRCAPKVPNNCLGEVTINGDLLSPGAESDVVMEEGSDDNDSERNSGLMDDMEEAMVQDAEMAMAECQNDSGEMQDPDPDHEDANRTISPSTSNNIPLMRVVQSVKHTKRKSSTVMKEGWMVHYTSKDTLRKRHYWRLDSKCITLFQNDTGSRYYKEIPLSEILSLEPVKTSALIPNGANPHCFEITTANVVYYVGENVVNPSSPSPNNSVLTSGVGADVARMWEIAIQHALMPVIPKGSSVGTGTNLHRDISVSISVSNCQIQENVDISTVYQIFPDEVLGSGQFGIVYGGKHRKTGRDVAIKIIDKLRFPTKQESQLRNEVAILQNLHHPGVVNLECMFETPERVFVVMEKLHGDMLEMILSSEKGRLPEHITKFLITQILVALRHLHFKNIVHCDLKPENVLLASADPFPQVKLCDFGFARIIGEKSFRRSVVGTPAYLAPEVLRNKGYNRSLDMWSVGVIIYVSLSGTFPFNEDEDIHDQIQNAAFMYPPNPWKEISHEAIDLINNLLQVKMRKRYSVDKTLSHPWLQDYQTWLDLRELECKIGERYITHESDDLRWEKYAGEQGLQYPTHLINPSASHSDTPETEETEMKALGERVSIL", "chain of UniProt Q8IY84 (whole entry, looked up)": "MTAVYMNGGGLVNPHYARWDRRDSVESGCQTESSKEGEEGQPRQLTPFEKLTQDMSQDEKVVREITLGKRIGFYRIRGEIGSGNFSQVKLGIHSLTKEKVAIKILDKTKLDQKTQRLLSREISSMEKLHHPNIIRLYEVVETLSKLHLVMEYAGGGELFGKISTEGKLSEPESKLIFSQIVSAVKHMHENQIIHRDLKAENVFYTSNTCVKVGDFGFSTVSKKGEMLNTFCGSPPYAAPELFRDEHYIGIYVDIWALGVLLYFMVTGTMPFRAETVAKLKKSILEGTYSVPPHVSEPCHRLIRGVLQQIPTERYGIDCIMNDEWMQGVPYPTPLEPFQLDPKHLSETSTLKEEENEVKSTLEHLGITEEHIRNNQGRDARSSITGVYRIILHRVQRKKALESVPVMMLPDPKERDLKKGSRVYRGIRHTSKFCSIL"}
{"data": "Set 1", "species": "human", "matrix": "microsomes or S9", "tested at": "2 µM", "time": "0.5 h"}
{"SMILES": "O=C(O)/C=C/c1ccc(NC(=O)Cc2c[nH]c3ccccc23)cc1", "remaining compound [%]": 94.9}
{"SMILES": "O=S1(=O)N=C(N(CCOc2ccccc2)CCOc2ccccc2)c2ccccc21", "remaining compound [%]": 2.43}
{"SMILES": "COc1c(Cl)c(-c2cc(C3(O)CCCCC3)on2)c(OC)c2c1OCO2", "remaining compound [%]": 6.76}
{"SMILES": "COc1cc(/C=C/C(C)=O)ccc1O", "remaining compound [%]": 40.1}
{"SMILES": "COCCNc1nc2c(c(=O)n(C)c(=O)n2C)n1CCOC", "remaining compound [%]": 80.6}
{"SMILES": "CCOc1ccc(C2=NNC(c3ccncc3)=Nc3ccc(C(C)C)cc32)cc1", "remaining compound [%]": 4.79}
{"SMILES": "Cc1cc(-n2c(C)cc(C(=O)CSc3[nH]c(=O)cc(C(F)(F)F)c3C#N)c2C)no1", "remaining compound [%]": 0.124}
{"SMILES": "CCOc1cc(=O)n2c(c1C(=O)N1CCCc3ccccc31)CCCC2", "remaining compound [%]": 0.652}
{"SMILES": "CCOc1cc(=O)n2c(c1C(=O)NC1CCCC1)CCCCC2", "remaining compound [%]": 72.7}
{"SMILES": "Cc1nnc(C[S+]([O-])c2ccc(Cl)c(Cl)c2)n1C (centres unmarked)", "remaining compound [%]": "> 100"}
{"SMILES": "c1ccc(-c2nnc(-c3cc4ccccc4o3)o2)nc1", "remaining compound [%]": 27.2}
{"SMILES": "CCN(CC)CCN(C)Cc1cccc2ccccc12", "remaining compound [%]": 31.4}
{"SMILES": "CCc1nc(CNc2ncnc3cc(Br)sc23)co1", "remaining compound [%]": 0.441}
{"SMILES": "COc1ccc(-c2nc(Cc3ccccc3)sc2C)cc1", "remaining compound [%]": 2.65}
{"SMILES": "CC1C(OC(=O)C2=CN3CCS(=O)(=O)N=C3C=C2)CC2CC1C2(C)C (centres unmarked)", "remaining compound [%]": 53.8}
{"data": "Set 2", "target": "His6 tag", "technique": "AlphaScreen counter screen", "tested at": "concentration not given"}
{"Compound": "C[C@@H](N)[C@H]1CC[C@H](C(=O)Nc2ccncc2)CC1.Cl.Cl", "inhibition": "1.4%"}
{"Compound": "Oc1cccc(-c2nc(N3CCOCC3)c3oc4ncccc4c3n2)c1", "inhibition": "3.7%"}
{"Compound": "O=C1NC(=O)C(=Cc2ccc(-c3ccc(F)cc3)o2)S1", "inhibition": "-2.4%"}
{"Compound": "Clc1ccc(-c2nnc3ccc(SCc4cccnc4)nn23)cc1", "inhibition": "-1.5%"}
{"Compound": "CO[C@@H]1[C@H](N(C)C(=O)c2ccccc2)C[C@H]2O[C@]1(C)n1c3ccccc3c3c4c(c5c6ccccc6n2c5c31)C(=O)NC4", "inhibition": "9.95%"}
{"Compound": "COC(=O)C=Cc1cc(O)ccc1O", "inhibition": "0.75%"}
{"Compound": "Cc1cncc2cccc(S(=O)(=O)N3CCCNC[C@@H]3C)c12", "inhibition": "3.5%"}
{"Compound": "O=C(O)c1ccccc1C=NNc1ncc(C(F)(F)F)cc1Cl", "inhibition": "-5.7%"}
{"Compound": "O=C(NCc1ccc(F)cc1)c1n[nH]c2ccccc12", "inhibition": "-5.25%"}
{"Compound": "O=C(CSc1ccc2nnc(-c3ccc(Cl)cc3)n2n1)Nc1nccs1", "inhibition": "-8.15%"}
{"Compound": "COc1cc(Nc2ncc(F)c(Nc3ccc4c(n3)N(COP(=O)(O)O)C(=O)C(C)(C)O4)n2)cc(OC)c1OC", "inhibition": "-9.85%"}
{"Compound": "Cc1ccc(Nc2ncc(-c3ccncc3)n3ccnc23)cc1", "inhibition": "-7.5%"}
{"data": "Set 3", "SMILES": "CCS(=O)(=O)c1cc2cc(C[C@@](O)(CC(C)(C)c3ccc(F)cc3C(N)=O)C(F)(F)F)[nH]c2cn1", "observed": "cell-free assay", "technique": "competition with immobilised ligand", "tested at": "1 µM"}
{"target": "ULK2 (Homo sapiens, UniProt Q8IYT8)", "remaining binding": "85%"}
{"target": "PIKFYVE (Homo sapiens, UniProt Q9Y2I7)", "remaining binding": "69%"}
{"target": "PTK2B (Homo sapiens, UniProt Q14289)", "remaining binding": "100%"}
{"target": "MAP4K2 (Homo sapiens, UniProt Q12851)", "remaining binding": "80%"}
{"target": "DYRK2 (Homo sapiens, UniProt Q92630)", "remaining binding": "83%"}
{"target": "CSNK2A2 (Homo sapiens, UniProt P19784)", "remaining binding": "83%"}
{"target": "NUAK2 (Homo sapiens, UniProt Q9H093)", "remaining binding": "84%"}
{"target": "PIK3CA (Homo sapiens, UniProt P42336, I800L)", "remaining binding": "70%"}
{"target": "NIM1K (Homo sapiens, UniProt Q8IY84)", "remaining binding": "51%"}
{"target": "PRKD1 (Homo sapiens, UniProt Q15139)", "remaining binding": "100%"}
{"target": "RET (Homo sapiens, UniProt P07949, V804M)", "remaining binding": "74%"}
{"target": "Myosin-IIIa (MYO3A, Homo sapiens, UniProt Q8NEV4)", "remaining binding": "80%"}
{"target": "MYLK2 (Homo sapiens, UniProt Q9H1R3)", "remaining binding": "100%"}
{"target": "BMPR2 (Homo sapiens, UniProt Q13873)", "remaining binding": "91%"}
{"target": "IRAK1 (Homo sapiens, UniProt P51617)", "remaining binding": "80%"}
{"target": "MARK2 (Homo sapiens, UniProt Q7KZI7)", "remaining binding": "100%"}
{"target": "SLK (Homo sapiens, UniProt Q9H2G2)", "remaining binding": "88%"}
{"target": "STK39 (Homo sapiens, UniProt Q9UEW8)", "remaining binding": "84%"}
{"target": "STK32B (Homo sapiens, UniProt Q9NY57)", "remaining binding": "100%"}
{"target": "NUAK1 (Homo sapiens, UniProt O60285)", "remaining binding": "77%"}
{"target": "MAP3K20 (Homo sapiens, UniProt Q9NYL2)", "remaining binding": "100%"}
{"data": "Set 4", "target": "Calcium/calmodulin-dependent protein kinase type II subunit gamma (CAMK2G, Homo sapiens, UniProt Q13555)", "observed": "enzyme activity", "mode": "inhibitor", "tested at": "0.5 µM", "baseline": "control", "chain of UniProt Q13555 (whole entry, looked up)": "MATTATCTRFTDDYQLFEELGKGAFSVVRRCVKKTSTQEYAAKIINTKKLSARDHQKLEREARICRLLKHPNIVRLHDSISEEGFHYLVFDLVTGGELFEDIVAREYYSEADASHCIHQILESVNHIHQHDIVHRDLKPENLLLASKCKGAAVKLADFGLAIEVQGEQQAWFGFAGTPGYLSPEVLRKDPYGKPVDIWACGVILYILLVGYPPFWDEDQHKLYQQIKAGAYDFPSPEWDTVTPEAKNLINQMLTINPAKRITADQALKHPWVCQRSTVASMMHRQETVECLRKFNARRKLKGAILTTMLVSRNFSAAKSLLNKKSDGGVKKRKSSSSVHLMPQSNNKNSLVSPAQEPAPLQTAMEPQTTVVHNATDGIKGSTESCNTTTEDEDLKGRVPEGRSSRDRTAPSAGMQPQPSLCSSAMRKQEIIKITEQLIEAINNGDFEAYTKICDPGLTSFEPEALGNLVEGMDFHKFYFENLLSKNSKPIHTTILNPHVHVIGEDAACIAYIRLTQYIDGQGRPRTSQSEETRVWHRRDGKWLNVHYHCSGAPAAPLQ"}
{"Structure (SMILES)": "Cc1nc2cc3nc(-c4cccs4)cnc3cc2n1C", "remaining activity [%]": 101}
{"Structure (SMILES)": "CCN(CC)C(=O)c1ccc(Nc2nc(OCC3CCCCC3)c3[nH]cnc3n2)cc1", "remaining activity [%]": 95.2}
{"Structure (SMILES)": "N#Cc1c(NC(=O)c2cccc3ccccc23)sc2c1CCCC2", "remaining activity [%]": 99.6}
{"Structure (SMILES)": "CCN(CC)CCNC(=O)c1c(C)[nH]c(/C=C2\\C(=O)Nc3ccc(F)cc32)c1C", "remaining activity [%]": 25.1}
{"Structure (SMILES)": "c1ccc(-c2cnc(Nc3ccc(OCCN4CCCC4)cc3)s2)cc1", "remaining activity [%]": 66.9}
{"Structure (SMILES)": "c1ccc(-c2[nH]ncc2-c2ccnc3ccccc23)nc1", "remaining activity [%]": 85.9}
{"Structure (SMILES)": "O=C1Nc2ccc(Cl)cc2C1=Cc1cc(Cl)c(O)c(Cl)c1", "remaining activity [%]": 119}
{"Structure (SMILES)": "CN(C)C[C@H]1CCn2c(c(C3=C(c4cn(C)c5ccccc45)C(=O)NC3=O)c3ccccc32)C1", "remaining activity [%]": 100}
{"Structure (SMILES)": "Ic1cccc(CSc2nnc(-c3ccncc3)o2)c1", "remaining activity [%]": 96.8}
{"Structure (SMILES)": "Nc1cccc(-c2cc3c(Oc4cccc(O)c4)ncnc3[nH]2)c1", "remaining activity [%]": 105}
{"Structure (SMILES)": "COc1cc2c(cc1OC)-c1[nH]nc(Nc3cccc(F)c3)c1C2", "remaining activity [%]": 101}
{"Structure (SMILES)": "COc1cc2ncnc(Nc3cccc(Cl)c3)c2cc1OC", "remaining activity [%]": 97.3}
{"Structure (SMILES)": "Cc1cn(-c2cc(NC(=O)c3ccc(C)c(Nc4nccc(-c5cccnc5)n4)c3)cc(C(F)(F)F)c2)cn1", "remaining activity [%]": 111}
{"Structure (SMILES)": "O=C1c2ccccc2-c2n[nH]c3cccc1c23", "remaining activity [%]": 91.1}
{"Structure (SMILES)": "O=C(Nc1cccc(Nc2nccc(Nc3cccc(C(F)(F)F)c3)n2)c1)C1CC1", "remaining activity [%]": 108}
{"Structure (SMILES)": "O=c1cc(-c2cccc3c2Sc2ccccc2S3)oc(N2CCOCC2)c1", "remaining activity [%]": 106}
{"Structure (SMILES)": "N#C/C(=C\\c1ccc(O)c(O)c1)C(=O)NCc1ccccc1", "remaining activity [%]": 94.1}
{"Structure (SMILES)": "Cc1cc2ncc(-c3ccccc3)nc2cc1C", "remaining activity [%]": 105}
{"Structure (SMILES)": "CCN(CC)CCNC(=O)c1c(C)[nH]c(/C=C2\\C(=O)Nc3ccc(Cl)cc32)c1C", "remaining activity [%]": 8.13}
{"Structure (SMILES)": "COc1cc2ncnc(Nc3ccc(O)c(Br)c3)c2cc1OC", "remaining activity [%]": 95.2}
{"Structure (SMILES)": "O=C(NC(NC(=S)Nc1ccc(F)c([N+](=O)[O-])c1)C(Cl)(Cl)Cl)C(c1ccccc1)c1ccccc1 (centres unmarked)", "remaining activity [%]": 107}
{"Structure (SMILES)": "Cn1nc2c3c(cccc31)C(=O)c1ccccc1-2", "remaining activity [%]": 109}
{"Structure (SMILES)": "O=C1C(Cl)=C(N2C(=O)CCC2=O)C(=O)c2ccccc21", "remaining activity [%]": 104}
{"note": "Repeated from above (set 4):"}
{"Structure (SMILES)": "c1ccc(-c2[nH]ncc2-c2ccnc3ccccc23)nc1", "remaining activity [%]": 85.9}
{"Structure (SMILES)": "O=C1Nc2ccc(Cl)cc2C1=Cc1cc(Cl)c(O)c(Cl)c1", "remaining activity [%]": 119}
{"Structure (SMILES)": "CN(C)C[C@H]1CCn2c(c(C3=C(c4cn(C)c5ccccc45)C(=O)NC3=O)c3ccccc32)C1", "remaining activity [%]": 100}
{"Structure (SMILES)": "Ic1cccc(CSc2nnc(-c3ccncc3)o2)c1", "remaining activity [%]": 96.8}
{"Structure (SMILES)": "Nc1cccc(-c2cc3c(Oc4cccc(O)c4)ncnc3[nH]2)c1", "remaining activity [%]": 105}
